Measured values from different studies.
Compare with care: the assays were run in different laboratories. Numbers after ± are the reported error.
Organism: Escherichia coli

Substance	test	test system	conditions	MIC
CC[C@H](C)[C@H](NC(=O)CNC(=O)[C@H](CCCNC(=N)N)NC(=O)[C@H](Cc1ccccc1)NC(=O)[C@@H](NC(=O)[C@H](Cc1c[nH]cn1)NC(=O)[C@H](Cc1c[nH]cn1)NC(=O)[C@H](Cc1ccccc1)NC(=O)[C@@H](N)Cc1ccccc1)[C@@H](C)CC)C(=O)N[C@H](C(=O)N[C@@H](Cc1c[nH]cn1)C(=O)N[C@H](C(=O)NCC(=O)N[C@@H](CCCCN)C(=O)N[C@H](C(=O)N[C@H](C(=O)N[C@@H](Cc1c[nH]cn1)C(=O)N[C@@H](CCCNC(=N)N)C(=O)N[C@@H](CC(C)C)C(=O)N[C@H](C(=O)N[C@H](C(=O)NCC(=O)O)[C@@H](C)O)C(C)C)[C@@H](C)CC)[C@@H](C)O)C(C)C)C(C)C	broth microdilution	K12	37 °C	12.5 µM
CC[C@H](C)[C@H](NC(=O)[C@H](CCCNC(=N)N)NC(=O)[C@@H](N)CCCNC(=N)N)C(=O)N[C@@H](CCCCN)C(=O)N[C@@H](CCCCN)C(=O)N[C@@H](CCCNC(=N)N)C(=O)N1CCC[C@H]1C(=O)N1CCC[C@H]1C(=O)N[C@@H](CCCNC(=N)N)C(=O)N[C@@H](CC(C)C)C(=O)N1CCC[C@H]1C(=O)N[C@@H](CCCNC(=N)N)C(=O)N1CCC[C@H]1C(=O)N[C@@H](CCCNC(=N)N)C(=O)N1CCC[C@H]1C(=O)N[C@@H](CCCCN)C(=O)O	broth microdilution	BW25113 parental, Mueller-Hinton broth	18 h, 37 °C	0.078 ± 0.032 µM
CC[C@H](C)[C@H](NC(=O)CNC(=O)[C@H](CCCNC(=N)N)NC(=O)[C@H](Cc1ccccc1)NC(=O)[C@@H](NC(=O)[C@H](Cc1c[nH]cn1)NC(=O)[C@H](Cc1c[nH]cn1)NC(=O)[C@H](Cc1ccccc1)NC(=O)[C@@H](N)Cc1ccccc1)[C@@H](C)CC)C(=O)N[C@H](C(=O)N[C@@H](Cc1c[nH]cn1)C(=O)N[C@H](C(=O)NCC(=O)N[C@@H](CCCCN)C(=O)N[C@H](C(=O)N[C@@H](C)C(=O)N[C@@H](Cc1c[nH]cn1)C(=O)N[C@@H](CCCNC(=N)N)C(=O)N[C@@H](CC(C)C)C(=O)N[C@H](C(=O)N[C@H](C(=O)NCC(N)=O)[C@@H](C)O)C(C)C)[C@@H](C)O)C(C)C)C(C)C	broth microdilution	ATCC 25922	18 h, 37 °C	3.1 µg/mL
CSc1nc(Cl)cc(Sc2nnc(-c3cc(C(F)(F)F)cc(C(F)(F)F)c3)[nH]2)n1	microbial growth	NR698	16 h	5.2 µM
EVEPSDTIENVKAKIQ	–	peptide, DH5α, Luria broth	overnight, 37 °C	10 µM
CC(C)C[C@H](NC(=O)[C@H](C)NC(=O)CNC(=O)[C@@H](NC(=O)[C@@H](NC(=O)[C@H](CCCCN)NC(=O)[C@H](CCCCN)NC(=O)[C@@H](NC(=O)[C@H](CC(C)C)NC(=O)[C@H](CCCCN)NC(=O)[C@H](CC(C)C)NC(=O)[C@H](CC(C)C)NC(=O)[C@@H](N)CCCCN)C(C)C)C(C)C)C(C)C)C(=O)NCC(N)=O	–	ATCC 25922, CAMHB	18 h, 37 °C	> 22 µM
CC(C)C[C@H](NC(=O)[C@H](C)NC(=O)[C@H](CC(C)C)NC(=O)[C@@H](NC(=O)[C@@H](N)CO)[C@@H](C)O)C(=O)N[C@H](C(=O)N[C@@H](CC(C)C)C(=O)N[C@@H](CCCNC(=N)N)C(=O)N[C@@H](CC(C)C)C(=O)N[C@@H](CCCNC(=N)N)C(=O)NCC(=O)NCC(=O)O)C(C)C	–	DH5α	37 °C, ≥90% viability decrease	10 µM
CC[C@H](C)[C@H](NC(=O)CN)C(=O)N[C@@H](CCCCN)C(=O)N[C@H](C(=O)N[C@@H](CCCNC(=N)N)C(=O)N[C@@H](CCCCN)C(=O)N[C@@H](CC(C)C)C(=O)N[C@@H](Cc1ccccc1)C(=O)N[C@@H](CCCCN)C(=O)N[C@@H](CCCCN)C(=O)N[C@@H](CC(C)C)C(=O)N[C@@H](CC(C)C)C(=O)N[C@@H](CCCNC(=N)N)C(N)=O)[C@@H](C)CC	broth microdilution	ATCC 25922, LB medium	16 to 20 h, 37 °C	50 µg/mL
CC[C@H](C)[C@H](NC(=O)CNC(=O)[C@H](CC(=O)O)NC(=O)[C@H](CCCNC(=N)N)NC(=O)[C@@H](NC(=O)[C@H](CC(N)=O)NC(=O)[C@H](CCCNC(=N)N)NC(=O)CNC(=O)[C@@H](NC(=O)[C@H](CCCCN)NC(=O)[C@H](CCC(=O)O)NC(=O)[C@@H](NC(=O)[C@H](CCCCN)NC(=O)[C@H](CCCCN)NC(=O)[C@H](Cc1ccccc1)NC(=O)[C@@H](NC(=O)[C@H](CCCCN)NC(=O)[C@H](Cc1c[nH]c2ccccc12)NC(=O)[C@@H](N)CCCCN)[C@@H](C)CC)[C@@H](C)CC)C(C)C)C(C)C)C(=O)N[C@H](C(=O)N[C@@H](CCCCN)C(=O)N[C@@H](C)C(=O)NCC(=O)N1CCC[C@H]1C(=O)N[C@@H](C)C(=O)N[C@H](C(=O)N[C@@H](CCC(N)=O)C(=O)N[C@H](C(=O)N[C@H](C(=O)NCC(=O)N[C@@H](CCC(N)=O)C(=O)N[C@@H](C)C(=O)N[C@H](C(=O)N[C@@H](CO)C(=O)N[C@H](C(=O)N[C@@H](C)C(=O)N[C@@H](CCCCN)C(N)=O)[C@@H](C)CC)[C@@H](C)O)C(C)C)C(C)C)C(C)C)[C@@H](C)CC	broth microdilution	DH5α	20 h, 37 °C	4.9 ± 2.3 µg/mL
CO/N=C(\C(=O)N[C@@H]1C(=O)N2C(C(=O)O)=C(COC(C)=O)CS[C@H]12)c1csc(N)n1	–	AmpC-overproducing clinical isolate	alone without inhibitor, second isolate	8 µg/mL
CC(C)C[C@H](NC(=O)[C@H](CCCNC(=N)N)NC(=O)[C@@H]1CCCN1C(=O)[C@H](Cc1c[nH]cn1)NC(=O)[C@@H]1CCCN1C(=O)[C@@H]1CCCN1C(=O)[C@H](CCCNC(=N)N)NC(=O)[C@@H]1CCCN1C(=O)[C@H](CCC(N)=O)NC(=O)[C@@H]1CCCN1C(=O)[C@H](CCCNC(=N)N)NC(=O)[C@H](Cc1ccc(O)cc1)NC(=O)[C@@H](NC(=O)[C@@H]1CCCN1C(=O)[C@H](CCCCN)NC(=O)[C@H](CC(N)=O)NC(=O)[C@H](CC(N)=O)NC(=O)CN)C(C)C)C(=O)O	broth microdilution	BW25113, 20% M9 medium	–	0.384 ± 0.08 µM
CC[C@H](C)[C@H](NC(=O)[C@H](CC(C)C)NC(=O)CNC(=O)[C@H](CO)NC(=O)[C@@H](NC(=O)[C@H](CC(C)C)NC(=O)[C@@H](N)CC(N)=O)C(C)C)C(=O)N[C@@H](CCC(=O)O)C(=O)N[C@@H](C)C(=O)N[C@@H](CCCNC(=N)N)C(=O)N[C@@H](CCCCN)C(=O)N[C@@H](Cc1ccc(O)cc1)C(=O)N[C@@H](CC(C)C)C(=O)N[C@@H](CCC(=O)O)C(=O)N[C@@H](CCC(N)=O)C(=O)N[C@@H](CC(C)C)C(=O)N[C@@H](Cc1c[nH]cn1)C(=O)N[C@@H](CCCNC(=N)N)C(=O)N[C@@H](CCCCN)C(=O)N[C@@H](CC(C)C)C(=O)N[C@@H](CCCCN)C(=O)N[C@@H](CC(N)=O)C(=O)N[C@@H](CCCNC(=N)N)C(=O)N[C@@H](CCCCN)C(=O)N[C@H](C(=O)O)C(C)C	broth microdilution	K12	37 °C	> 92 µM
CC[C@H](C)[C@H](NC(=O)[C@@H]1CCCN1C(=O)[C@H](CCCCN)NC(=O)[C@@H]1CCCN1C(=O)[C@@H]1CCCN1C(=O)[C@@H](NC(=O)[C@@H]1CCCN1C(=O)[C@H](CCCNC(=N)N)NC(=O)[C@@H]1CCCN1C(=O)[C@H](CCCNC(=N)N)NC(=O)[C@H](Cc1ccc(O)cc1)NC(=O)[C@H](CO)NC(=O)CNC(=O)[C@H](CCCCN)NC(=O)[C@H](CC(=O)O)NC(=O)[C@@H](N)C(C)C)[C@@H](C)O)C(=O)N[C@@H](Cc1ccc(O)cc1)C(=O)N[C@@H](CC(N)=O)C(=O)N[C@@H](CCCNC(=N)N)C(=O)N[C@@H](CC(N)=O)C(=O)O	broth microdilution	BW25113, 5% M9 medium	–	0.15 ± 0.034 µM
CC[C@H](C)[C@H](NC(=O)[C@H](C)N)C(=O)N[C@@H](CCCCN)C(=O)N[C@H](C(=O)N[C@@H](CCCNC(=N)N)C(=O)N[C@@H](CCCCN)C(=O)N[C@@H](CC(C)C)C(=O)N[C@@H](Cc1ccccc1)C(=O)N[C@@H](CCCCN)C(=O)N[C@@H](CCCCN)C(=O)N[C@@H](CC(C)C)C(=O)N[C@@H](CC(C)C)C(=O)N[C@@H](CCCNC(=N)N)C(N)=O)[C@@H](C)CC	broth microdilution	ATCC 25922, LB medium	16 to 20 h, 37 °C	50 to 100 µg/mL
CC[C@H](C)[C@H](NC(=O)[C@H](Cc1ccc(O)cc1)NC(=O)[C@@H](NC(=O)[C@@H]1CCCN1C(=O)[C@H](CCCCN)NC(=O)[C@H](CC(N)=O)NC(=O)[C@H](CC(N)=O)NC(=O)CN)C(C)C)C(=O)N1CCC[C@H]1C(=O)N[C@@H](CCC(N)=O)C(=O)N1CCC[C@H]1C(=O)N[C@@H](CCCNC(=N)N)C(=O)N1CCC[C@H]1C(=O)N1CCC[C@H]1C(=O)N[C@@H](CCCNC(=N)N)C(=O)N1CCC[C@H]1C(=O)N[C@@H](CCCNC(=N)N)C(=O)N[C@@H](CC(C)C)C(=O)O	–	JW0368 ΔsbmA	18 h, 37 °C, 12.5% Mueller-Hinton broth	0.384 ± 0.08 µM
CC(C)C[C@@H](N)C(=O)N[C@@H](C(=O)N[C@H](Cc1c[nH]c2ccccc12)C(=O)N[C@H](CCCCN)C(=O)N[C@H](CC(C)C)C(=O)N[C@H](Cc1c[nH]c2ccccc12)C(=O)N[C@H](Cc1c[nH]c2ccccc12)C(=O)N[C@H](CCCNC(=N)N)C(=O)N[C@H](CC(C)C)C(=O)N[C@H](CCCNC(=N)N)C(=O)N[C@H](Cc1c[nH]c2ccccc12)C(=O)N[C@H](CC(C)C)C(=O)N[C@H](CCCCN)C(N)=O)C(C)C	broth microdilution	ATCC 25922, LB medium	16 to 20 h, 37 °C	50 µg/mL
CC[C@H](C)[C@H](NC(=O)[C@H](Cc1ccc(O)cc1)NC(=O)[C@@H](NC(=O)[C@@H]1CCCN1C(=O)[C@H](CCCNC(=N)N)NC(=O)[C@H](CC(N)=O)NC(=O)[C@H](CC(N)=O)NC(=O)CN)C(C)C)C(=O)N1CCC[C@H]1C(=O)N[C@@H](CCC(N)=O)C(=O)N1CCC[C@H]1C(=O)N[C@@H](CCCNC(=N)N)C(=O)N1CCC[C@H]1C(=O)N1CCC[C@H]1C(=O)N[C@@H](Cc1c[nH]cn1)C(=O)N1CCC[C@H]1C(=O)N[C@@H](CCCNC(=N)N)C(=O)N[C@@H](CC(C)C)C(=O)O	–	JW0368 ΔsbmA	18 h, 37 °C, 12.5% Mueller-Hinton broth	0.384 ± 0.08 µM
CC(C)[C@H](NC(=O)[C@H](CO)NC(=O)[C@H](Cc1c[nH]cn1)NC(=O)[C@H](Cc1ccccc1)NC(=O)[C@H](C)NC(=O)[C@H](CCCCN)NC(=O)CNC(=O)[C@H](Cc1ccccc1)NC(=O)CN)C(=O)N[C@@H](CO)C(=O)N[C@@H](CC(N)=O)C(=O)N[C@@H](Cc1ccccc1)C(=O)N[C@@H](C)C(=O)N[C@@H](CCCCN)C(=O)N[C@@H](CCCCN)C(=O)N[C@@H](Cc1c[nH]cn1)C(=O)N[C@@H](CCCCN)C(=O)N[C@H](C(=O)N[C@@H](C)C(N)=O)[C@@H](C)O	broth microdilution	K12	37 °C	> 100 µM
